Measured values collected from several papers.
Protocols differ between the studies behind these lines. Values joined by “and” are separate records of one study, mostly repeats; a detail may differ. ± gives the spread as reported.

Under “treatment-emergent adverse events”, `O=C(Nc1nc2cccc(-c3ccc(CN4CCS(=O)(=O)CC4)cc3)n2n1)C1CC1` is recorded as 0% (item: thrombocytopenia; rheumatoid arthritis patients; oral, 300 mg once daily, 4 weeks, any relatedness).
`OCc1nc2ccc(NCc3ccc(C(F)(F)F)cc3)cc2[nH]1` gave a tissue/plasma ratio of 11.5 ± 3.7 (Balb/c mouse, male, liver; intravenous, 1 mg/kg, 6 h; relative to: tissue over plasma).
`C[C@@H](N)C1CCN(S(=O)(=O)c2cccc3cnccc23)CC1`: “participants with TEAEs” 40% (healthy volunteers; 150 mg single dose, fed).
`COc1ccc(C[C@@H](C)[C@@H](C)Cc2ccc(OC)c(OC)c2)cc1OC` gave an AUC(0-t) of 34500 ± 11400 ng·h/mL (beagle dog, male, plasma; oral, 1000 mg/kg/day, day 1).
`CCc1nn(C)c2nc(-c3ccc(C(=O)O)cc3)nc(NCc3ccc(F)cc3)c12` gave a body weight of 22.6 g and 21.3 g and 18.8 g and 20.8 g (NSG mice; dose not given, day 7 of treatment).
`OB1NN=Cc2ccccc21` has a peak area of 314000 a.u. and 299000 a.u. and 316000 a.u. (stability, UPLC-MS; diluted serum; 6 day, 37 °C; higher = more compound remaining).
For `Cc1c(-c2ccc(N3CCc4cccc(C(=O)Nc5nc6ccccc6s5)c4C3)nc2C(=O)O)cnn1CC12CC3(C)CC(C)(C1)CC(OCCNCC[C@H](O)CO)(C3)C2`, “mean arterial pressure change” read 9 mmHg (beagle dog, male, anaesthetised; intravenous infusion, 0.01 mg/kg/min, 150 min; relative to: baseline).
For `O=C(Nc1cnccc1Cl)N1CCN(Cc2ccc3c(c2)OC(F)(F)O3)CC1`, “postural dizziness incidence” read 16.7% (multiple ascending dose; young men; 75 mg, treatment-emergent adverse events).
`CCOc1c([C@H](C)n2nc(C)c3c(N)ncnc32)cc(Cl)c(F)c1[C@@H]1CNC(=O)C1` has an ECG observations of 100% (item: QTcF ≤450 ms; previously treated B-cell malignancy; oral, 10 mg once daily, overall population).
`CCc1cc(C(=O)NC)c2nccc(N3CCc4c(cc(Cn5ccnc5)cc4-c4cn(C)nc4C(F)(F)F)C3=O)c2c1` — result for “serum LDL change”: 9% (Sprague Dawley rats; oral, 100 mg/kg once daily, 7 days; relative to: vehicle).
For `CN1CCC[C@H](CN2c3ccccc3Sc3ccccc32)C1.Cl`, the AUC(0-t) was 50500 ng·h/mL (Wistar rat female, lymph node; oral, 16 mg/kg).
`CNC(=O)c1cc(Oc2ccc(NC(=O)Nc3cc(C(C)(C)C)nn3-c3ccc4ncccc4c3)c(F)c2)ccn1` — result for “patients with nervous system disorder AE”: 12% (item: worst grade 1; human; oral, dose not given, cycles 1 and 2, Low Cmax subgroup).
Under “participants with TEAE”, `Cc1ccc(Sc2ccccc2N2CCNCC2)c(C)c1` is recorded as 0% (item: ureteric calculus; healthy adult women; oral, 5 mg daily, 12 days).
`CNc1ccc(-c2nc3ccc(O)cc3s2)cc1` [carbon-11 labelled] has an SUV of 0.184 ± 0.042 (ex vivo biodistribution; B6SJL mouse, normal, bone; intravenous, 30 min).
With `O=c1c2ccccc2oc2ccccc12` the solubility was 0.0436 mole fraction (tricaprin-tricaprylin mixture; 60 °C, tricaprin fraction 1.00).
`C[C@@H]1OC(=O)[C@H](Cc2ccccc2)[C@H]1O` gave a DT50 of 1.45 days (aerobic dark soil incubation; sandy loam soil; 20 °C, persistence endpoint).
`Cn1cc(Nc2nccc(-c3ccc4c(c3)CN(C3COC3)CC[C@H]4NC(=O)c3cn(C(C)(C)C)nn3)n2)cn1`: “percent change from baseline” -11.6% (item: class-switched memory B cells; human, clinical trial, whole blood; 150 mg twice daily, follow-up).
`CC(C)(C(=O)N1CCOc2c(C#N)cncc2C1)C(F)F` — result for “subjects with adverse event”: 0% (item: Restlessness; human; oral, 10 mg once daily, 14 days, multiple ascending dose).

Excerpt of the above:
`OCc1nc2ccc(NCc3ccc(C(F)(F)F)cc3)cc2[nH]1` gave a tissue/plasma ratio of 11.5 ± 3.7 (Balb/c mouse, male, liver; intravenous, 1 mg/kg, 6 h; relative to: tissue over plasma).
`C[C@@H]1OC(=O)[C@H](Cc2ccccc2)[C@H]1O` gave a DT50 of 1.45 days (aerobic dark soil incubation; sandy loam soil; 20 °C, persistence endpoint).
`CCOc1c([C@H](C)n2nc(C)c3c(N)ncnc32)cc(Cl)c(F)c1[C@@H]1CNC(=O)C1` has an ECG observations of 100% (item: QTcF ≤450 ms; previously treated B-cell malignancy; oral, 10 mg once daily, overall population).
